{"data": "Assay results of several laboratories", "note": "Protocols differ between the studies behind these lines. Several values in a cell are separate wells, animals, samples, runs or records. ± marks the error that the study gave."}
{"Compound": "O=C(O)CCCCCN1C(=O)/C(=C2/C(=O)N(Cc3ccc(F)cc3)c3ccccc32)SC1=S", "assay": "HPLC", "system": "50 mM phosphate buffer", "setting": "10 µM, 48 h, pH 7", "endpoint": "concentration decrease", "result": "~36%"}
{"Compound": "FC(F)(F)c1ccc(CNc2ccc(Cc3c[nH]c4ncc(Cl)cc34)cn2)cn1", "assay": "refers to: memory impairment", "system": "human, advanced solid tumours, all patients", "setting": "oral, 1000 mg/day, any grade", "endpoint": "treatment-related adverse events", "result": "4%"}
{"Compound": "Cc1ccc([C@H]2N[C@H](c3ccc(C(C)(C)C)cc3)CO[C@@H]2C)cn1", "assay": "shake-flask, LC-HRMS", "system": "aqueous buffer", "setting": "16 h, pH 6.8", "endpoint": "solubility", "result": "< 4 µM"}
{"Compound": "COc1cccc(OC)c1-c1cc(C(=O)NC2(C(=O)O)C3CC4CC(C3)CC2C4)nn1-c1ccc(C(=O)N(C)CCCN(C)CCCN(C)C(=O)CN2CCN(CC(=O)[O-])CCN(CC(=O)[O-])CCN(CC(=O)[O-])CC2)cc1C(C)C.[177Lu+3] (stereo not drawn)", "system": "mouse, HT-29 xenograft, liver", "setting": "24 h post injection", "endpoint": "tissue uptake", "result": "0.7 %ID/g"}
{"Compound": "CC(=O)N(C)C1CCN(c2cc(F)cc(NC(=O)c3cc4c(F)ccc(C)c4[nH]3)c2)C1 (stereo not drawn)", "system": "CD1 mouse", "setting": "oral, 50 mg/kg", "endpoint": "AUC(0-inf)", "result": "148 ng·h/mL"}
{"Compound": "Cn1ncnc1[C@H]1c2n[nH]c(=O)c3cc(F)cc(c23)N[C@@H]1c1ccc(F)cc1", "system": "human patients, plasma", "setting": "oral, 600 µg/m2 twice daily day 1, day 5, dose level DL6, median, with: temozolomide 55 mg/m2 daily days 2-6", "endpoint": "AUCτ", "result": "215 ng·h/mL"}
{"Compound": "Cc1ccc(C(=O)Nc2ccnc(S(N)(=O)=O)c2)c(N2CCCC(F)(F)CC2)n1", "system": "rhesus macaque, plasma", "setting": "oral, 3 mg/kg, noxious stimulus test", "endpoint": "total plasma concentration", "result": "1.46 to 3.56 µM"}
{"Compound": "Cc1ccc([C@@H]2O[C@H](CO)[C@@H](O)[C@H](O)[C@H]2O)cc1Cc1ccc(-c2ccc(F)cc2)s1", "system": "Japanese type 2 diabetes patients", "setting": "400 mg, day 16, 24 h urine collection", "scale": "reference: baseline", "endpoint": "urinary magnesium excretion change", "result": "8.12 mg"}
{"Compound": "COc1cccc(-c2n[nH]c(SCc3ccccn3)n2)c1OC", "system": "Sprague-Dawley rats, both sexes", "setting": "oral dietary, 30 mg/kg/day, day 7, 6 h", "endpoint": "plasma concentration", "result": "2060 ng/mL"}
{"Compound": "C=CC(=O)N(C)CCOc1c(N)ncnc1-c1cc(F)cc(NC(=O)c2ccc(C3CC3)cc2F)c1C", "system": "human, plasma", "setting": "oral, 400 mg once daily, day 12", "endpoint": "AUC", "result": "1280 ng·h/mL"}
{"Compound": "O=C(Nc1nc2cccc(-c3ccc(CN4CCS(=O)(=O)CC4)cc3)n2n1)C1CC1", "assay": "refers to: blood triglycerides increased", "system": "rheumatoid arthritis patients", "setting": "oral, 150 mg once daily, 4 weeks, any relatedness", "endpoint": "treatment-emergent adverse events", "result": "0%"}
{"Compound": "CCOC(=O)N1C[C@@H]([C@H](C)CC)N[C@@H](C2CC2)C1", "assay": "shake-flask, LC-HRMS", "system": "aqueous buffer", "setting": "16 h, pH 6.8", "endpoint": "solubility", "result": "> 750 µM"}
{"Compound": "Cc1cc(N[C@H]2CCc3ccc(Cl)cc3C2)n2nc(C(C)(F)F)nc2n1", "system": "NSG mouse, whole blood", "setting": "oral, 30 mg/kg", "endpoint": "AUC(0-t)", "result": "28 µM·h"}
{"Compound": "Cc1ccc(Sc2ccccc2N2CCNCC2)c(C)c1", "assay": "refers to: any TEAE", "system": "healthy adult women", "setting": "oral, 10 mg daily, 12 days", "endpoint": "participants with TEAE", "result": "66.7%"}
{"Compound": "CCCCCc1ccc(C(=O)Oc2ccc(C#N)c(F)c2)cc1", "system": "Sprague-Dawley rat, female, placenta", "setting": "5000 ng/mL in perfusate, 50 (unit not given), high dose, mixture of 21 LCMs", "endpoint": "placental accumulation", "result": "184 ± 395 ng/g"}
{"Compound": "COc1ccc([C@@H](O)c2cc(-c3ncnc4cc(N5CCOCC5)ccc34)c(F)cc2Cl)nn1", "system": "locally advanced rectal cancer", "setting": "oral, 150 mg, with: capecitabine and radiotherapy", "endpoint": "rectal tenesmus TEAE", "result": "33%"}
{"Compound": "COc1ccc2c(c1)CN(C(=O)CCN1CCC(Cc3ccccc3)CC1)CC[S@@+]2[O-]", "assay": "telemetry", "system": "conscious male beagle dogs", "setting": "intravenous, 2 mg/kg, 24 h", "endpoint": "QRS duration", "result": "34 ± 10 ms"}
{"Compound": "C[C@H](CCC(=O)NCC(=O)O)[C@H]1CC[C@H]2[C@@H]3CC[C@@H]4C[C@H](O)CC[C@]4(C)[C@H]3C[C@H](O)[C@]12C", "system": "human, plasma", "setting": "endogenous baseline diurnal", "endpoint": "Cmin", "result": "45.7 ± 11.5 nM"}
{"Compound": "C[C@@H](N)c1cc(Cl)ccc1Cn1c(=S)[nH]c(=O)c2[nH]ccc21", "system": "human matched controls", "setting": "oral, 2.5 mg single dose", "endpoint": "subjects with severe adverse events", "result": "0%"}
{"Compound": "COc1cc(Nc2ncc3c(n2)-c2ccc(Cl)cc2C(c2c(F)cccc2OC)=NC3)ccc1C(=O)O", "assay": "refers to: Hypertension, grade 3", "system": "cancer patients, phase 1/2", "setting": "oral, dose not given, with: pembrolizumab", "endpoint": "patients with adverse event", "result": "4%"}
{"Compound": "N[C@@H](C[18F])C(=O)O", "assay": "PET imaging", "system": "female athymic nude mice, U-87 MG xenograft, tumor", "setting": "intravenous, 15 min", "endpoint": "tracer uptake", "result": "2.17 ± 0.62 %ID/cc"}
{"Compound": "COc1cccc(-n2nnnc2SCC(=O)Nc2c(C)cc(C)cc2C)c1", "system": "aqueous buffer", "setting": "pH 7.4", "endpoint": "solubility", "result": "< 2.74 µg/mL"}
{"Compound": "COc1ccc([C@@H]2COC[C@H](c3ccc(-c4ccccc4)cc3)N2)cc1", "assay": "shake-flask, LC-HRMS", "system": "aqueous buffer", "setting": "16 h, pH 6.8", "endpoint": "solubility", "result": "< 4 µM"}
{"Compound": "O=C1NCCc2nc(OCc3cccc(F)c3)ccc21", "assay": "refers to: skin color", "system": "Sprague-Dawley rat male", "setting": "oral, 100 mg/kg, 4 h", "scale": "direction not given", "endpoint": "Irwin test score", "result": 0}
{"Compound": "Cc1nc(-c2ccc(OCC(C)C)c(C#N)c2)sc1C(=O)O", "system": "human, plasma", "setting": "oral, 10 mg, with: verinurad 2.5 mg", "scale": "reference: test over reference", "endpoint": "geometric mean ratio AUC(0-24)", "result": 93.9}
{"Compound": "O=C(Nc1ccc(OC(F)(F)Cl)cc1)c1cnc(N2CC[C@@H](O)C2)c(-c2ccn[nH]2)c1", "assay": "refers to: Triglyceride increase, any grade", "system": "human patients, dose-finding study", "setting": "oral, sample G of sample B patients", "endpoint": "patients with event", "result": "70.2%"}
{"Compound": "NC1(C(=O)N[C@@H](CCO)c2ccc(Cl)cc2)CCN(c2nc[nH]c3nccc2-3)CC1", "system": "metastatic CRPC patients", "setting": "dose not given, any grade, treatment-related, all doses, with: enzalutamide 160 mg daily", "endpoint": "incidence of Hyper-glycaemia", "result": "46.7%"}
{"Compound": "CCc1cc(C(=O)NC)c2nccc(N3CCc4c(cc(Cn5ccnc5)cc4-c4cn(C)nc4C(F)(F)F)C3=O)c2c1", "system": "Sprague Dawley rats", "setting": "oral, 100 mg/kg twice daily, 7 days", "endpoint": "serum DBIL level", "result": "0.8 ± 0.06 µmol/L"}
{"Compound": "CCOC(=O)N1C[C@@H](c2ccc(C(F)(F)F)cc2)N[C@@H](c2ccc(F)c(C#N)c2)C1", "assay": "shake-flask, LC-HRMS", "system": "aqueous buffer", "setting": "16 h, pH 6.8", "endpoint": "solubility", "result": "< 4 µM"}
{"Compound": "O=c1[nH]c(=O)c(Cc2cccc(C(F)(F)F)c2)c([C@H]2CC[C@H](c3ccccc3)CC2)[nH]1", "system": "human plasma", "setting": "-20 and -70 °C", "endpoint": "frozen storage stability", "result": "1030 days"}
{"Compound": "CN1CCC(CNc2ccc3ncc(-c4cccc(OC(F)(F)F)c4)n3n2)CC1", "assay": "immunosuppression signature, BioMAP Diversity PLUS", "system": "primary human cell cocultures", "endpoint": "lowest toxic concentration", "result": "3.3 µM"}
{"Compound": "CCn1c(=O)c(-c2cc(NC(=O)Nc3ccccc3)c(F)cc2Br)cc2cnc(NC)cc21", "system": "human plasma", "setting": "150 ng/mL, 24 h, 24 °C, low QC", "endpoint": "short-term stability accuracy", "result": "9.29%"}
{"Compound": "O=c1[nH]c(=O)n([C@H]2C[C@H](O)[C@@H](CO)O2)cc1CCCCC[18F]", "system": "male CD-1 nu/nu mice, RG2 tumour, spleen", "setting": "intravenous, dose not given, 2 h", "endpoint": "biodistribution", "result": "0.13 ± 0.03 %ID/g"}
{"Compound": "Cc1cc(OCC(=O)OCCN)cc(C)c1Cc1ccc(O)c(C(C)C)c1.Cl", "assay": "LC-MS/MS, refers to: liberated sobetirome", "system": "mouse, brain and serum", "setting": "intraperitoneal, 1.5 µmol/kg, 30 min", "scale": "reference: equimolar sobetirome injection", "endpoint": "brain/serum sobetirome ratio", "result": "increased"}
{"Compound": "CN1CCC[C@H](CN2c3ccccc3Sc3ccccc32)C1.Cl", "system": "ICR mouse female fasted, heart", "setting": "oral, 16 mg/kg", "endpoint": "AUC(0-t)", "result": "2210 ng·h/mL"}
{"Compound": "Cc1c(-c2ccc(N3CCc4cccc(C(=O)Nc5nc6ccccc6s5)c4C3)nc2C(=O)O)cnn1CC12CC3(C)CC(C)(C1)CC(OCCNCC[C@H](O)CO)(C3)C2", "system": "anaesthetized male beagle dog", "setting": "iv infusion, 0.01 mg/kg/min, 90 min", "endpoint": "plasma concentration", "result": "< 2 ng/mL"}
{"Compound": "Cc1cc([C@H]2C[C@H]3[C@@H](CF)SC(N)=N[C@@]3(c3ccc(F)cc3F)CO2)on1", "system": "129/SVE wild-type mouse, male", "setting": "subcutaneous, 100 mg/kg, 7 h", "endpoint": "CSF concentration", "result": "40 nM"}
{"Compound": "Cc1nc(-c2ccc(OCC(C)C)c(C#N)c2)sc1C(=O)O", "system": "KM mouse, chronic hyperuricaemia model", "setting": "dose not given, day 7", "endpoint": "body weight", "result": "28 g and 29.7 g and 31.8 g and 33.3 g and 29 g and 31.4 g"}
{"Compound": "CCOC(=O)N1C[C@@H](C2CCCCC2)N[C@@H](c2ccc(-c3ccccc3)cc2)C1", "assay": "shake-flask, LC-HRMS", "system": "aqueous buffer", "setting": "16 h, pH 6.8", "endpoint": "solubility", "result": "< 4 µM"}
{"Compound": "O=c1[nH]c(=O)n([C@@H]2O[C@H](CO)[C@@H](O)[C@@H]2F)cc1CCCC[18F]", "system": "nude mice, RG2 tumour, lung", "setting": "intravenous, dose not given, 2 h", "endpoint": "biodistribution", "result": "0.13 ± 0.03 %ID/g"}
{"Compound": "CC(Sc1nc2ccccc2[nH]1)C(=O)Nc1ccc(S(N)(=O)=O)cc1 (stereo not drawn)", "system": "aqueous buffer", "setting": "pH 7.4", "endpoint": "solubility", "result": "7.84 µg/mL"}
{"Compound": "Nc1ncn([C@H]2C[C@H](O)[C@@H](CO)O2)c(=O)n1", "system": "processed mouse plasma", "setting": "80 ng/mL, 24 h, 4 °C, re-injection stability", "endpoint": "mean deviation from nominal", "result": "5.48%"}
{"note": "Excerpt of the above:"}
{"Compound": "CCn1c(=O)c(-c2cc(NC(=O)Nc3ccccc3)c(F)cc2Br)cc2cnc(NC)cc21", "system": "human plasma", "setting": "150 ng/mL, 24 h, 24 °C, low QC", "endpoint": "short-term stability accuracy", "result": "9.29%"}
{"Compound": "O=c1[nH]c(=O)n([C@H]2C[C@H](O)[C@@H](CO)O2)cc1CCCCC[18F]", "system": "male CD-1 nu/nu mice, RG2 tumour, spleen", "setting": "intravenous, dose not given, 2 h", "endpoint": "biodistribution", "result": "0.13 ± 0.03 %ID/g"}
{"Compound": "Cc1cc(OCC(=O)OCCN)cc(C)c1Cc1ccc(O)c(C(C)C)c1.Cl", "assay": "LC-MS/MS, refers to: liberated sobetirome", "system": "mouse, brain and serum", "setting": "intraperitoneal, 1.5 µmol/kg, 30 min", "scale": "reference: equimolar sobetirome injection", "endpoint": "brain/serum sobetirome ratio", "result": "increased"}
{"Compound": "CN1CCC[C@H](CN2c3ccccc3Sc3ccccc32)C1.Cl", "system": "ICR mouse female fasted, heart", "setting": "oral, 16 mg/kg", "endpoint": "AUC(0-t)", "result": "2210 ng·h/mL"}
{"Compound": "Cc1c(-c2ccc(N3CCc4cccc(C(=O)Nc5nc6ccccc6s5)c4C3)nc2C(=O)O)cnn1CC12CC3(C)CC(C)(C1)CC(OCCNCC[C@H](O)CO)(C3)C2", "system": "anaesthetized male beagle dog", "setting": "iv infusion, 0.01 mg/kg/min, 90 min", "endpoint": "plasma concentration", "result": "< 2 ng/mL"}
{"Compound": "Cc1cc([C@H]2C[C@H]3[C@@H](CF)SC(N)=N[C@@]3(c3ccc(F)cc3F)CO2)on1", "system": "129/SVE wild-type mouse, male", "setting": "subcutaneous, 100 mg/kg, 7 h", "endpoint": "CSF concentration", "result": "40 nM"}
{"Compound": "Cc1nc(-c2ccc(OCC(C)C)c(C#N)c2)sc1C(=O)O", "system": "KM mouse, chronic hyperuricaemia model", "setting": "dose not given, day 7", "endpoint": "body weight", "result": "28 g and 29.7 g and 31.8 g and 33.3 g and 29 g and 31.4 g"}
